{"data": "Experimental data from different studies", "target": "Ribosomal protein S6 kinase beta-2 (RPS6KB2, Homo sapiens, UniProt Q9UBS0)", "note": "Values joined by “and” are separate records of one study, mostly repeats; a detail may differ."}
{"Structure (SMILES)": "CCn1cc(C(=O)O)c(=O)c2c(N)c(F)c(NC3CCCCC3)cc21", "assay": "kinase activity", "conditions": "0.1 µM, together with: ATP at Km", "measurement": "inhibition", "value": "25.9%"}
{"Structure (SMILES)": "NC(=O)C[C@H]1CCc2sc3ncnc(O[C@H]4CC[C@H](N5CCOCC5)CC4)c3c21", "assay": "enzyme activity, inhibitor", "conditions": "10 µM", "measurement": "inhibition", "value": "4%"}
{"Structure (SMILES)": "Nc1ncc(-c2cc(-c3cnn(CC(F)(F)F)c3)ncc2F)nc1C(=O)NC1CNCC(F)C1 (stereo not shown)", "assay": "enzyme activity", "conditions": "1 µM", "scale": "baseline: DMSO control", "measurement": "remaining activity", "value": "105%"}
{"Structure (SMILES)": "CN1CCN(Cc2ccc(-c3ccc(CO[C@H]4CCC[C@@H]4NC(=O)c4cc(-c5cnn(C)c5)cnc4N)cc3)cc2)CC1", "assay": "enzyme activity, inhibitor", "conditions": "0.1 µM", "measurement": "inhibition", "value": "15%"}
{"Structure (SMILES)": "C=CC(=O)N1Cc2nc(-c3cc(-c4cc(Cl)cnc4Cl)c(F)cc3F)n(-c3ccncn3)c2C1", "assay": "cell-free assay, inhibitor", "conditions": "1 µM", "measurement": "inhibition", "value": "4.2%"}
{"Structure (SMILES)": "C=CC(=O)Nc1cccc(-c2cnc3[nH]cc(C(=O)NC(C)(C)C)c3n2)c1", "assay": "kinase activity, inhibitor, kinase panel", "conditions": "0.1 µM", "measurement": "inhibition", "value": "-7% and -8%"}
{"Structure (SMILES)": "Cc1cccc(O[C@H]2CCC[C@@H](C(C)CNCc3ccncc3)C2)c1 (relative stereo)", "assay": "kinome profiling", "conditions": "1 µM", "measurement": "inhibition", "value": "0%"}
{"Structure (SMILES)": "NC(=O)[C@@H](O)C[C@H]1CCc2sc3ncnc(O[C@H]4CC[C@H](N5CCOCC5)CC4)c3c21", "assay": "enzyme activity, inhibitor", "conditions": "10 µM", "measurement": "inhibition", "value": "10%"}
{"Structure (SMILES)": "COCC12C(=O)NC3C4(C(OC)CC1O)C1CC5(O)C(OC)C(O)C(OC(C)=O)(C1C5OC(=O)c1ccccc1)C3(O)C(OC)C24 (stereo not shown)", "assay": "kinase activity, inhibitor, ProQinase kinase profiling", "conditions": "25 µM", "scale": "baseline: control", "measurement": "remaining activity", "value": "44% and 67%"}
{"Structure (SMILES)": "O=C(Cc1ccc(OCc2ccccc2)cc1)NC1(C(=O)O)CCN(C(=O)c2ccc(-c3cccc(Cl)c3)cc2)CC1", "assay": "enzyme activity, inhibitor", "conditions": "10 µM", "measurement": "activity vs control", "value": "126%"}
{"note": "For quick reference, copied from above:"}
{"Structure (SMILES)": "CN1CCN(Cc2ccc(-c3ccc(CO[C@H]4CCC[C@@H]4NC(=O)c4cc(-c5cnn(C)c5)cnc4N)cc3)cc2)CC1", "assay": "enzyme activity, inhibitor", "conditions": "0.1 µM", "measurement": "inhibition", "value": "15%"}
